Experimental data from different studies.
Compare with care: the assays were run in different laboratories. Values joined by “and” are separate records of one study, mostly repeats; a detail may differ. Numbers after ± are the reported error.
Chain of UniProt Q92847 (whole entry, looked up): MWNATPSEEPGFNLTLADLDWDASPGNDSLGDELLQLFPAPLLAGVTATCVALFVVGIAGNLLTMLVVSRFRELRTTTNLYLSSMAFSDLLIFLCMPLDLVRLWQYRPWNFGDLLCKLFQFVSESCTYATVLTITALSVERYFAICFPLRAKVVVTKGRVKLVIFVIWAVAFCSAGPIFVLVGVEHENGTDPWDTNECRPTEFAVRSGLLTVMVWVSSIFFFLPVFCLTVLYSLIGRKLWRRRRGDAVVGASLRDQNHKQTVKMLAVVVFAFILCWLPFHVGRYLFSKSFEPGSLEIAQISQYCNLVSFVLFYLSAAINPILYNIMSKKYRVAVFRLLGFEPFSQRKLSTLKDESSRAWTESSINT
Chain of UniProt Q15349 (whole entry, looked up): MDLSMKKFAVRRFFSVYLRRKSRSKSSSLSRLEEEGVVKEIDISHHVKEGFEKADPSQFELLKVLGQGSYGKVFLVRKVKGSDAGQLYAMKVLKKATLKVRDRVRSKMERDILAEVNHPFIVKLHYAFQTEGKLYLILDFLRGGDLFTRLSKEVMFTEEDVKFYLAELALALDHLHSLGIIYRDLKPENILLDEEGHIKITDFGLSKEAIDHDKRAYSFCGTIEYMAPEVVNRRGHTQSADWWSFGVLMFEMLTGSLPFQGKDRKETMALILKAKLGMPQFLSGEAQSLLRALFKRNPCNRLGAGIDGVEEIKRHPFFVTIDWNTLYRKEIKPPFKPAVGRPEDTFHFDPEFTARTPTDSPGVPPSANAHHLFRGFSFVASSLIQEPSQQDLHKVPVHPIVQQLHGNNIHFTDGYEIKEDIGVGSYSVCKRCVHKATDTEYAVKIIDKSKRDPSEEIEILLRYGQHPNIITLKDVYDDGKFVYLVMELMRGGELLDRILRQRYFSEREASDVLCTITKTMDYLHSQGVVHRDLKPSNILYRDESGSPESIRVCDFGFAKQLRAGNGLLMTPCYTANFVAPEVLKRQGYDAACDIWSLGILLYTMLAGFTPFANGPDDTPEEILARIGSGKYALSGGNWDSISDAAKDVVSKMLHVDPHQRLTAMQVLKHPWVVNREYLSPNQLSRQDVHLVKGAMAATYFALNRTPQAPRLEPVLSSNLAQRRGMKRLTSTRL
Chain of UniProt Q15370 (whole entry, looked up): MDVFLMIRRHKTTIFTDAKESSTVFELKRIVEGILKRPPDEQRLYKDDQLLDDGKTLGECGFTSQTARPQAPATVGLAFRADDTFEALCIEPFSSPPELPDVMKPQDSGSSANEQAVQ

Under “subjects with drug-related TEAE”, `Cn1c(-c2ccc(C(N)=O)cc2F)nnc1C(C)(C)Oc1c(F)cc(Cl)cc1F` is recorded as 33.3% (human; oral, 6 mg, single ascending dose).
For `C[C@@H](NC(=O)N1C(=O)[C@H](Cc2ccnc(N)c2)[C@H]1C(=O)O)C1CCCCC1`, “incidence of abnormal liver function” read 12.5% (healthy adult Chinese volunteers; continuous intravenous infusion, 0.3 mg/kg/h, 5-day infusion, CTCAE 5.0 grading).
The Leukopenia incidence of `COc1cc2c(Oc3ccc4[nH]c(C)cc4c3F)ccnc2cc1OCC1(N)CC1` is reported as 25% (paediatric recurrent refractory sarcoma; 10 mg).
For `CC[C@H](C)[C@H](NC(=O)[C@H](Cc1ccccc1)NC(=O)[C@H](CCC(=O)O)NC(=O)[C@H](CCCNC(=N)N)NC(=O)[C@H](C)NC(=O)[C@H](C)NC(=O)[C@H](CCC(N)=O)NC(=O)[C@H](CCC(=O)O)NC(=O)[C@H](CCC(=O)O)NC(=O)[C@H](CC(C)C)NC(=O)[C@H](Cc1ccc(O)cc1)NC(=O)[C@H](CO)NC(=O)[C@H](CO)NC(=O)[C@@H](NC(=O)[C@H](CC(=O)O)NC(=O)[C@H](CO)NC(=O)[C@@H](NC(=O)[C@H](Cc1ccccc1)NC(=O)[C@@H](NC(=O)CNC(=O)[C@H](CCC(=O)O)NC(=O)[C@H](C)NC(=O)CCc1c[nH]cn1)[C@@H](C)O)[C@@H](C)O)C(C)C)C(=O)N[C@@H](C)C(=O)N[C@@H](Cc1c[nH]c2ccccc12)C(=O)N[C@@H](CC(C)C)C(=O)N[C@H](C(=O)N[C@@H](CCCNC(=N)N)C(=O)NCC(=O)N[C@@H](CCCNC(=N)N)C(=O)N[C@@H](CCCCNC(=O)COCCOCCNC(=O)COCCOCCNC(=O)CC[C@H](NC(=O)CCCCCCCCCCCCCCCCC(=O)O)C(=O)O)C(=O)NCC(=O)NCC(=O)N[C@@H](CO)C(=O)N[C@@H](CCCCNc1c(NCCCCCN(O)C(=O)CCC(=O)NCCCCCN(O)C(=O)CCC(=O)NCCCCCN(O)C(C)=O)c(=O)c1=O)C(=O)O)C(C)C` [zirconium-89 labelled], the tissue uptake was 0.05 %ID/g (gamma counting; rat, stomach-duodenum content; subcutaneous, 3 nmol/kg, 72 h).
`COc1cc(CCC[P+](c2ccccc2)(c2ccccc2)c2ccccc2)c(OC)c2c1OCO2.[I-]` has an LC50 of -4.07 log M (MDA-MB-231; NCI60 SRB).
For `C[C@H]1CN(c2n[nH]c3nc(N[C@H]4CC[C@H](NS(=O)(=O)CCC(F)(F)F)CC4)ncc23)CCO1`, the remaining binding was 1.39 (Elongin-B (Homo sapiens, UniProt Q15370); Kinobeads competition, measured: TCEB2; 0.8 µM, unit not given; relative to: vehicle).
For `C[C@]1(CO)Cc2ncn(-c3ccc(C#N)c(Cl)c3)c2C(=O)O1`, “subjects with drug-related headache” read 0% (human; 10 mg multiple doses, fasted).
`O=C(O)CCCOc1ccc(F)cc1-c1cc(-c2ccccc2C(F)(F)F)n(-c2ccccc2)n1`: “relative organ weight” 2.77 ± 0.18 g% (female Crl:CD(SD) rats, liver; intravenous, 25 µg/kg, 1 d).
For `COc1ccc(N2C(=O)N(c3c(C)cccc3Cl)Cc3cnc(Nc4ccc(C5CCN(C)CC5)cc4OC)nc32)nc1`, the inhibition was 10% (Ribosomal protein S6 kinase alpha-2 (RPS6KA2, Homo sapiens, UniProt Q15349); kinase activity, inhibitor; 0.5 µM, RSK3).
`CCc1ccc(CC/C=C/c2ccc3c(c2)C(=O)CC3)cc1` gave a Urea of 4.87 mM (Sprague-Dawley rat, male; oral, 120 mg/kg/day, 14 days).
`CCN1CCN(Cc2ccc(Nc3ncc(F)c(-c4cc(F)c5nc6n(c5c4)[C@H](C)CCC6)n3)nc2)CC1`: “weight loss incidence” 0% (Phase Ia dose escalation; patients with advanced solid tumours; dose not given, monotherapy, grade ≥3).
`CC[C@H](C)[C@@H]1NC(=O)[C@@H]2CCCN2C(=O)[C@H](CC(C)C)NC(=O)[C@H](CC(C)C)NC(=O)CNC(=O)[C@@H](NC(=O)[C@@H](NC(=O)[C@H](CC(=O)O)NC(=O)CNC(=O)[C@@H](NC(=O)[C@H](C)NC(=O)CNC(=O)[C@H](CCCCN)NC(=O)[C@H](CC(C)C)NC(=O)[C@H](CC(C)C)NC(=O)[C@H](CCCCN)NC(=O)CNC(=O)[C@@H](NC(=O)[C@@H](N)CC(C)C)C(C)C)C(C)C)C(C)C)CSSC[C@@H](C(=O)O)NC1=O` — result for “log2 fold change”: -3.68 (RNA-seq, measured: Mcemp1; mouse, traumatic brain injury model, frontal cortex and hippocampus; dose not given; relative to: TBI alone).
For `CC(C)[C@H](N)C(=O)NCCCS(=O)(=O)O`, the Cmax was 6460 ng/mL (human, plasma; oral, 265 mg twice daily days 2-6, once daily day 7, day 7, fed, tablet).
For `CC[C@H](C)[C@@H]1NC(=O)[C@H](CCCNC(=N)N)NC(=O)C[C@@H](c2cccc3ccccc23)NC(=O)[C@@H]2CSSC[C@H](NC(=O)C[C@@H](c3cccc4ccccc34)NC(=O)[C@H](CCCNC(=N)N)NC(=O)[C@@H]3CCCN3C(=O)[C@@H]3CCCN3C1=O)C(=O)N[C@@H](Cc1ccccc1)C(=O)N1CCC[C@H]1C(=O)N[C@@H](CC(=O)O)C(=O)N[C@@H](CC(=O)O)C(=O)N[C@@H](Cc1ccccc1)C(=O)N2`, the distribution half-life was 19.8 min (two-compartment model; athymic nude mice (Foxn1); intravenous, 6 mg/kg).
The IC50 of `COc1cc(Nc2ncc(F)c(Nc3ccc4c(n3)NC(=O)C(C)(C)O4)n2)cc(OC)c1OC` is reported as over 10 µM (Growth hormone secretagogue receptor type 1 (GHSR, Homo sapiens, UniProt Q92847)).
For `COc1cccc(Oc2ccccc2NC(=O)CNC(=O)c2cccc3ccccc23)c1`, the sodium/potassium ratio was 20 and 21 (esterase-deficient SCID mice, male; oral, 15 mg/kg/day, 14 days, toxicity study).
Under “change in Anxious score”, `O=C(Nc1ccccc1)C1CCN(C(=O)Oc2cccnc2)CC1` is recorded as -0.5 (psychotropic effects VAS; healthy women; 60 mg; relative to: pre-dose baseline, direction not given).
`Brc1ccc(Oc2cc(Br)c(Br)cc2Br)c(Br)c1` — result for “dose fraction in skim milk”: 6.97% (whole cow milk; 200 nM nominal).
For `CO[C@H]1C[C@@H]2CC[C@@H](C)[C@@](O)(O2)C(=O)C(=O)N2CCCC[C@H]2C(=O)O[C@H]([C@H](C)C[C@@H]2CC[C@@H](OC(=O)NCCOCCOCCOCCOCCOCCOCCOCCOCCC(=O)N3CCc4cc(Cn5nc(-c6ccc7oc(N)nc7c6)c6c(N)ncnc65)ccc4C3)[C@H](OC)C2)C[C@@H](O)[C@H](C)/C=C(\C)[C@@H](O)[C@@H](OC)C(=O)[C@H](C)C[C@H](C)/C=C/C=C/C=C/1C`, “decreased appetite incidence” read 25% (patients with advanced solid tumours; intravenous, 16 mg weekly, any grade).

Repeated from above:
For `COc1ccc(N2C(=O)N(c3c(C)cccc3Cl)Cc3cnc(Nc4ccc(C5CCN(C)CC5)cc4OC)nc32)nc1`, the inhibition was 10% (Ribosomal protein S6 kinase alpha-2 (RPS6KA2, Homo sapiens, UniProt Q15349); kinase activity, inhibitor; 0.5 µM, RSK3).
`CCc1ccc(CC/C=C/c2ccc3c(c2)C(=O)CC3)cc1` gave a Urea of 4.87 mM (Sprague-Dawley rat, male; oral, 120 mg/kg/day, 14 days).
